# Measured values collected from several papers.
# Each numbered part is a random draw from the data of one study; scales do not carry over between parts. Substitutions count along the parent as printed.
# Sequence of UniProt Q8RYC8 (whole entry, looked up): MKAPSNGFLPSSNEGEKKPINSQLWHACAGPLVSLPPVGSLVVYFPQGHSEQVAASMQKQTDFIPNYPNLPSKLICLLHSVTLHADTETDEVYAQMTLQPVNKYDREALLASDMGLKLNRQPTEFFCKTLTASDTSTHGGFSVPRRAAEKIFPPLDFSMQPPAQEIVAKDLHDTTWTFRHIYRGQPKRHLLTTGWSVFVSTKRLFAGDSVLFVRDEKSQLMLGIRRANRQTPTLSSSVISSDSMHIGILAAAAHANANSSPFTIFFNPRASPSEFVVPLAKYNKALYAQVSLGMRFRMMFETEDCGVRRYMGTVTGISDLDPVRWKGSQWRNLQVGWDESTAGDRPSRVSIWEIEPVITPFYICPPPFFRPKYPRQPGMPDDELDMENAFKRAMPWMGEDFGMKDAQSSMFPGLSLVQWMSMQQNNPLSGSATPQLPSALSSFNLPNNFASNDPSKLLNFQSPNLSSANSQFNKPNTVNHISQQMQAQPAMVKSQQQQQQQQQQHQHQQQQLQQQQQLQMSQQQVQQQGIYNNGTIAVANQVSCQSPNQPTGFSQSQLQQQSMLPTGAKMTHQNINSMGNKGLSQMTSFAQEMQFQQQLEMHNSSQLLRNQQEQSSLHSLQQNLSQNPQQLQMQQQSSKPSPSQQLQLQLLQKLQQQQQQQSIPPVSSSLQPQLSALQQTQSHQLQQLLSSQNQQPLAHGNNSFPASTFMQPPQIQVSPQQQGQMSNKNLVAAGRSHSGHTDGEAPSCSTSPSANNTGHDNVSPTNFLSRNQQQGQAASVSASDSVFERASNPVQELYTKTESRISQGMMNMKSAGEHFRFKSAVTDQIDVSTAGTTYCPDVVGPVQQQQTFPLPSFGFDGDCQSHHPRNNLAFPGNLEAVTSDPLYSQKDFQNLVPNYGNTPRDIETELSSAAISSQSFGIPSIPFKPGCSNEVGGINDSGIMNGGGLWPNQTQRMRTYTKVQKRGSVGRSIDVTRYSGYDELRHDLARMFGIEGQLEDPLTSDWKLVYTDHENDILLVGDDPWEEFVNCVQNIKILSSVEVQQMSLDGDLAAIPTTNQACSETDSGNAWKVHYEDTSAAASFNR
# Sequence of UniProt Q9XID4 (whole entry, looked up): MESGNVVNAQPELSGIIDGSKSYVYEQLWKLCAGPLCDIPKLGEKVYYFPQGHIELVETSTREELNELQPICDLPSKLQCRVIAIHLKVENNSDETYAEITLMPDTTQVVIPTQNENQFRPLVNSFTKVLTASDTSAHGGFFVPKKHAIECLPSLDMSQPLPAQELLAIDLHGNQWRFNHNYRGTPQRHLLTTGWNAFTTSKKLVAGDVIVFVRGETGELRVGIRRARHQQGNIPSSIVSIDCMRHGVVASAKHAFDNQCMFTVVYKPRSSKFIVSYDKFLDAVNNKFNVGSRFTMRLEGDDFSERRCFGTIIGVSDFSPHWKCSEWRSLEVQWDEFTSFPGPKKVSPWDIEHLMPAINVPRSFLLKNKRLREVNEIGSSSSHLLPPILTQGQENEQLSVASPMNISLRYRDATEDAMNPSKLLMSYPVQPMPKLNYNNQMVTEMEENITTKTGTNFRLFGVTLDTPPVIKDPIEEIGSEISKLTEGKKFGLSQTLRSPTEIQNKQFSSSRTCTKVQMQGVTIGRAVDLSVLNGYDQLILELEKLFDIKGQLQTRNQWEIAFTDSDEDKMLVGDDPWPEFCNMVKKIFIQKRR
# Sequence of UniProt Q93YR9 (whole entry, looked up): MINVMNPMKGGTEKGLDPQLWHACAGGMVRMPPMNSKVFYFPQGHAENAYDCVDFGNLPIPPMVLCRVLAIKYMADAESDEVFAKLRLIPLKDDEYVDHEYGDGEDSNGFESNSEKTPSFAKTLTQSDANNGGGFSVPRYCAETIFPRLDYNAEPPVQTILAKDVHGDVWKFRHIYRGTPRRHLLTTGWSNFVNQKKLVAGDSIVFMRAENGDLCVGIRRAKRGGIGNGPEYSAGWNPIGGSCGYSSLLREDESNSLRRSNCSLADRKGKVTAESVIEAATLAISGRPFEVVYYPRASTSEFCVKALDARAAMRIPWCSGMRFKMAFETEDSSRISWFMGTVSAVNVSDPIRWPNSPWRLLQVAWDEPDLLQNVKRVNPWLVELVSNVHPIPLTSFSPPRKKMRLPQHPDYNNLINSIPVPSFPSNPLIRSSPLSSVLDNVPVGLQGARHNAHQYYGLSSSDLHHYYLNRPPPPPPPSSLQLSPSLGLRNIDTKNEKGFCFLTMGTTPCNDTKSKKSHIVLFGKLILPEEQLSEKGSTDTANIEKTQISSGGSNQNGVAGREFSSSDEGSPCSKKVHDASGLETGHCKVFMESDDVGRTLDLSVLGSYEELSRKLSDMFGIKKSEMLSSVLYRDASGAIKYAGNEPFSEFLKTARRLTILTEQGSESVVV
# Sequence of UniProt Q9C5X0 (whole entry, looked up): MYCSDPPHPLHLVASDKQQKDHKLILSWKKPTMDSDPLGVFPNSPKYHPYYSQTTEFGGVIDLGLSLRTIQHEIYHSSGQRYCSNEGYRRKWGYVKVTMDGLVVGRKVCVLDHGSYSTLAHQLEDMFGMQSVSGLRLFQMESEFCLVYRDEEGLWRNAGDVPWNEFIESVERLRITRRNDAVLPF
# Sequence of UniProt Q9XED8 (whole entry, looked up): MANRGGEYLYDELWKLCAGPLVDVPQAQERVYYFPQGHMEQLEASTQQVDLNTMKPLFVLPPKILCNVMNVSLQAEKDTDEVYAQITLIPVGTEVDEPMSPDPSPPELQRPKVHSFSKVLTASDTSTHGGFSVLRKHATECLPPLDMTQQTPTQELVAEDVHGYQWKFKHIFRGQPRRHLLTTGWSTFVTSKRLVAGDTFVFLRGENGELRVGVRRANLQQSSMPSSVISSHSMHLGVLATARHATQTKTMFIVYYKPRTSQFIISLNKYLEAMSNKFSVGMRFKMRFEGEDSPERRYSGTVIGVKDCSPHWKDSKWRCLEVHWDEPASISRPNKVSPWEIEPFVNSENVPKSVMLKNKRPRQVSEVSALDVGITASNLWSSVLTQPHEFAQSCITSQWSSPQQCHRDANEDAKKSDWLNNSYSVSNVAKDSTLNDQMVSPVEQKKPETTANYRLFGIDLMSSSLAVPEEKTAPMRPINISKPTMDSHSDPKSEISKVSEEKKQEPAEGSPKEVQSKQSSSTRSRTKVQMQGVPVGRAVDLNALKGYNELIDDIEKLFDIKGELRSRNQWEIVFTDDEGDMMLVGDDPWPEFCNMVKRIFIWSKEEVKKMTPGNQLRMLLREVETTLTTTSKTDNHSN
# Sequence of UniProt Q94JM3 (whole entry, looked up): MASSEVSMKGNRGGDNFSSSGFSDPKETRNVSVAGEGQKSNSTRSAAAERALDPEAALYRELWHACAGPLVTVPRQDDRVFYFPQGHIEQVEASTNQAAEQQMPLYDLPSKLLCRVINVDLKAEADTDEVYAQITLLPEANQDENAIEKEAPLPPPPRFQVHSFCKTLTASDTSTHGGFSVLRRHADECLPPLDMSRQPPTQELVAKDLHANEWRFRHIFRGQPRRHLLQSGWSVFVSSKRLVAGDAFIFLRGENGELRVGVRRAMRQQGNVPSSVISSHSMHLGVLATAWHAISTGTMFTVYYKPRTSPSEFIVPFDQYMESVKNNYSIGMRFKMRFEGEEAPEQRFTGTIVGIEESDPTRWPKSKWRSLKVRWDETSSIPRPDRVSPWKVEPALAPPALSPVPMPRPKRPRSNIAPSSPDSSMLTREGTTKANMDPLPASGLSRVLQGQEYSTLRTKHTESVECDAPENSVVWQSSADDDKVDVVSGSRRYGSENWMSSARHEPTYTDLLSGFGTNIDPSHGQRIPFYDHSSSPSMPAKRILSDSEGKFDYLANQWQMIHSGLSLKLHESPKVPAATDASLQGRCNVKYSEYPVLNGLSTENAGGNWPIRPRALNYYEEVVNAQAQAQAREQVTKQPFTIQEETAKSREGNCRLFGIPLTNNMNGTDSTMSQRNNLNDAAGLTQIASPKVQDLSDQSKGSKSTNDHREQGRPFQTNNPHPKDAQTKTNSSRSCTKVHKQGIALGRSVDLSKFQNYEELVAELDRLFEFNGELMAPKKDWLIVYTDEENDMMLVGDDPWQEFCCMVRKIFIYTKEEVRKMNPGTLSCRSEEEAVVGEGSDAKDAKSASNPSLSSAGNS

# Set 1
# Target: Sal-like protein 4, full length isoform B (SALL4, Homo sapiens, UniProt Q9UJQ4-2, residues 1-616)
# Technique: universal PBM
# Molecule type: double-stranded DNA, one strand shown
# Matrix: in vitro
# Concentration: not given
# Notes: 8-mer, flanks averaged, mean of replicates
# Reading: higher = stronger binding
Oligonucleotide,E-score
ATGTCGGA,-0.0791
ACACCCCT,-0.0402
AAAGTTCT,0.111
CGACCTCA,-0.138
CCCGGGGA,-0.318
CGAGGAAC,-0.122
CAAACGCG,-0.152
AGGTAGTA,0.164
ACGCTCGC,-0.259
CCGCGGTA,-0.231
GCACTTGA,-0.181
CTGTTTAA,0.0522
CAGAGGCG,-0.177
GTGGTGCA,-0.0911
CATGTCGG,-0.144
CGCCTATC,-0.0659
GCGTACAC,0.0207
AGATCACA,0.0248
AAGTCAAC,0.0839
AGCTATGG,-0.0544
CGCGGAAG,-0.188
GTTACGAA,0.16
AAGTGATA,0.145
ACTTGGAT,0.175
CCAGCCTA,-0.31

# Set 2
# Target: Histone acetyltransferase KAT6A, both winged helices, GST fusion (KAT6A, Homo sapiens, UniProt Q92794, residues 1-181)
# Technique: protein binding microarray
# Molecule type: double-stranded DNA, one strand shown
# Matrix: in vitro
# Concentration: not given
# Notes: 8-mer, flanks averaged, mean of 2 arrays, mostly near background
# Baseline: not given
# Reading: higher = stronger binding
# Residues (chain): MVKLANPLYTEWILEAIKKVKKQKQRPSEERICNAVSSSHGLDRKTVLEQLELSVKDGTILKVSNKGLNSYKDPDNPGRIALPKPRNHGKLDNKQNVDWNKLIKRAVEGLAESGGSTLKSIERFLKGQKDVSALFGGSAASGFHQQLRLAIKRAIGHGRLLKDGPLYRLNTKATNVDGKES
Oligonucleotide,E-score
CAAGGGGA,-0.292
CTATCTGC,-0.0447
CGTGCTAG,0.0434
CACAGTTA,0.0172
AATTAGCT,-0.142
TCGATGAA,0.102
AGATAGGG,-0.275
AGCACCCT,-0.161
CCACTTCG,-0.00593
CTGTGAGA,-0.0105
AAGGTTTA,-0.156
ATATGCAT,0.0406
ACCCGGCT,0.181
CACCCATG,0.0142
CTACGGCA,0.281
CCCTCACG,-0.0147
ACCGTTTG,0.114
ACATCCTC,-0.0594
AACGTGGG,-0.141
CTTATCGC,0.0999
CCCCATGC,0.0213
AGCTAGAT,-0.306
TCTGTTCA,-0.00433
GACAGTCA,0.0506
GTGTATCA,-0.126

# Set 3
# Molecule: B1 (IAA20)
# Technique: two-hybrid
# Notes: weak activation fusion
# Baseline: out of 4 tests
# Reading: higher = firmer interaction
# B1: IAA20 (Arabidopsis thaliana, UniProt O24410); chain MGRGRSSSSSSIESSSKSNPFGASSSTRNLSTDLRLGLSFGTSSGTQYFNGGYGYSVAAPAVEDAEYVAAVEEEEENECNSVGSFYVKVNMEGVPIGRKIDLMSLNGYRDLIRTLDFMFNASILWAEEEDMCNEKSHVLTYADKEGDWMMVGDVPWEMFLSTVRRLKISRANYHY
partner,positive tests
"ARF2 727-859 (Arabidopsis thaliana, UniProt Q94JM3)",0
"ARF19 948-1086 (Arabidopsis thaliana, UniProt Q8RYC8)",2
"ARF12 500-593 (Arabidopsis thaliana, UniProt Q9XID4)",0
"ARF16 570-670 (Arabidopsis thaliana, UniProt Q93YR9)",0
"IAA34 (Arabidopsis thaliana, UniProt Q9C5X0)",2
"ARF9 519-638 (Arabidopsis thaliana, UniProt Q9XED8)",1

# Set 4
# Target: Ras GTPase-activating protein-binding protein 1, full length (G3BP1, Homo sapiens, UniProt Q13283)
# Sequence of UniProt Q13283 (whole entry, looked up): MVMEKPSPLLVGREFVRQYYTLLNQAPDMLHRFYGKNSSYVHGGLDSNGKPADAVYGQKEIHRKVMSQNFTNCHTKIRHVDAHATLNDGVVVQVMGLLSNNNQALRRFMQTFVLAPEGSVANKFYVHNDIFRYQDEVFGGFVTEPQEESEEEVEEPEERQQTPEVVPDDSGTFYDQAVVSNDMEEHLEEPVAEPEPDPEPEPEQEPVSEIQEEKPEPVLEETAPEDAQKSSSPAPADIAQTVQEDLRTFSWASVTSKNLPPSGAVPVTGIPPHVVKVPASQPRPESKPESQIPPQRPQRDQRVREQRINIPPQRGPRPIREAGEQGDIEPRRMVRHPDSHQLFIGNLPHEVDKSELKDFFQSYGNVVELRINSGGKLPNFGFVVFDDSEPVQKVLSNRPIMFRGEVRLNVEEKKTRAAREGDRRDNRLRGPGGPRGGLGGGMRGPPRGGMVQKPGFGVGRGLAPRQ
# Technique: RNA Bind-n-Seq
# Molecule type: RNA
# Matrix: in vitro
# Concentration: 200 nM
# Notes: whole 134-nt RNA, ends assumed
# With: 150 mM LiCl
# Baseline: input library
# Reading: higher = stronger binding
# Each molecule: 7-deaza-guanosine replaces G
# All sequences stand within: GGGAGUUCUACAGUCCGACGAUC … UGGAAUUCUCGGGUGUCAAGG
Oligonucleotide,log2 enrichment
CCUGUGCUACACAUCGUAUGUACCGAAUCGGGAAAAAAGGGAAAAAAGGGGAAAAAAGGGGAAAGUAUUAUGUUACGCCGUUCGGAUCUG,0.422
GUCCUGUGCUACACAUCGUAUGUACCGAAUCGGAAAAAAGGAAAAAAGGGAAAAAAGGGAAAGUAUUAUGUUACGCCGUUCGGAUCUGCA,-0.635
CCUGUGCUACACAUCGUAUGUACCGAAUCGGGCCCCCCCGGCCCCCCCGGGCCCCCCCGGAAAGUAUUAUGUUACGCCGUUCGGAUCUGC,0.31
CACAGACAACACGCACCCACACAGACACAGAGGGAAGGGGUUGGGAUGGGGACAGGGUGCACAGCAGGGCGGGGUAGGACCCCCGCCCCU,-1.4
CUCAAGUCCUGUGCUACACAUCGUAUGUACCGAAUCGGGAAGGGGAAGGAAGGAAAGUAUUAUGUUACGCCGUUCGGAUCUGCACUUCCA,-0.656
UGGGAGGUGGAUUUUGUUUAUUUUUUUAGCUCAUUUCCAGGGGUGGGAAUUUUUUUUUACUAUGUGUCAUGAAUAAAGUUGUUUUUGAAA,-0.408
UGGGAGGUGGAUUUUGUUUAUUUUUUUAGCUCAUUUCCAGGGGUGGGAAUUUUCUUUUAAUAUGUGUCAUGAAUAAAGUUGUUUUUGAAA,-0.87
GUCCUGUGCUACACAUCGUAUGUACCGAAUCGGGAAAAAAGGGAAAAAAGGAAAAAAGGAAAGUAUUAUGUUACGCCGUUCGGAUCUGCA,-0.436
AGUCCUGUGCUACACAUCGUAUGUACCGAAUCGGAAAAGGGGAAAAGGGAAAAGGGGAAAGUAUUAUGUUACGCCGUUCGGAUCUGCACU,-0.464
UGCUUCAUCGCCUUGUGCUCCUGCCCCUGGGAGCUGUGGAUCCCAGAUCCAGAUGACAGCCCACCUUGCUGGCAGGAUGCGCCAAUCCCC,0.922
CCUCAAGUCCUGUGCUACACAUCGUAUGUACCGAAUCGGUUGGUUGGUUGGGGAAAGUAUUAUGUUACGCCGUUCGGAUCUGCACUUCCA,0.46

# Set 5
# Target: CCNB1, cyclin fold, Cln2 fusion (human)
# Technique: yeast growth competition, sequencing
# Matrix: yeast
# Notes: strong parent motif
# Baseline: not given
# Reading: higher = stronger binding
# Starting sequence: CCP110 docking peptide (human); EKVKRRLDLDIDG
Change,normalised enrichment score
R5K L9F,5.15
R5K,1.11
R6A,1.33
R5A L7A,0.152
R5A,0.342
I11A,1.54
L9A,0.11
E1A,1.6
K4A,1.88
K2A,1.5

# Set 6
# Target: ABI1, truncated, D143A, DHFR fusion (Arabidopsis thaliana)
# Technique: DHFR PCA, deep sequencing
# Matrix: yeast
# Notes: methotrexate growth selection, single substitutions
# With: (+)-ABA 2500 µM
# Baseline: wild-type fitted maximum
# Reading: higher = stronger binding
# Starting sequence: PYL1, truncated, DHFR fusion (Arabidopsis thaliana); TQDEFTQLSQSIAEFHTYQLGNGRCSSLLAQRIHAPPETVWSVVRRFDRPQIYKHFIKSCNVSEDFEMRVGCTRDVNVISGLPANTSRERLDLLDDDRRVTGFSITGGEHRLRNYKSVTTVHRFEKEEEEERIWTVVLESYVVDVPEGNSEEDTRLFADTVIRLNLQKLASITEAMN
Change,relative binding score
D97V,101%
E38M,85.9%
P37A,97.4%
R88G,81%
A175K,95.4%
E129F,102%
P36R,98.2%
E4N,94.6%
E4L,99.8%
T1I,96.1%
K168A,95.3%

# Repeated from above (set 6):
Change,relative binding score
E4N,94.6%
K168A,95.3%
E4L,99.8%
E38M,85.9%
D97V,101%
P36R,98.2%
T1I,96.1%
R88G,81%
P37A,97.4%
